{"data": "Assay results collected from several papers", "note": "Numbered parts are unrelated; each lists some results of a single study. Positions count from the first letter of the parent shown."}
{"data": "Sample 1", "target": "DBP, bZIP domain (human)", "technique": "DHFR protein complementation", "matrix": "yeast", "setting": "single substitutions, most at no-binding floor", "reference": "wild-type JUN-FOS pair", "direction": "higher = stronger binding", "parent": "JUN, bZIP domain (human); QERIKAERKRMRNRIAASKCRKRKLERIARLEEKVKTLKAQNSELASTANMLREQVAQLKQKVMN; partner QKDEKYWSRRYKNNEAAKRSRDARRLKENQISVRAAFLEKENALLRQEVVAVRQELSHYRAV"}
{"Change": "N42D", "binding fitness [natural log]": -1.56}
{"Change": "K39P", "binding fitness [natural log]": -1.51}
{"Change": "L52Y", "binding fitness [natural log]": -1.46}
{"Change": "I28A", "binding fitness [natural log]": -1.35}
{"Change": "A46V", "binding fitness [natural log]": -1.36}
{"Change": "K34R", "binding fitness [natural log]": -1.45}
{"Change": "L45H", "binding fitness [natural log]": -1.51}
{"Change": "T48D", "binding fitness [natural log]": -1.19}
{"Change": "R30M", "binding fitness [natural log]": -1.17}
{"Change": "V56C", "binding fitness [natural log]": -1.12}
{"Change": "N42P", "binding fitness [natural log]": -1.52}
{"data": "Sample 2", "target": "CCNA2, cyclin fold, Cln2 fusion (human)", "technique": "yeast growth competition, sequencing", "matrix": "yeast", "setting": "strong parent motif", "reference": "not given", "direction": "higher = stronger binding", "parent": "DOT1L docking peptide (human); SEAKRRIVFTITT; partner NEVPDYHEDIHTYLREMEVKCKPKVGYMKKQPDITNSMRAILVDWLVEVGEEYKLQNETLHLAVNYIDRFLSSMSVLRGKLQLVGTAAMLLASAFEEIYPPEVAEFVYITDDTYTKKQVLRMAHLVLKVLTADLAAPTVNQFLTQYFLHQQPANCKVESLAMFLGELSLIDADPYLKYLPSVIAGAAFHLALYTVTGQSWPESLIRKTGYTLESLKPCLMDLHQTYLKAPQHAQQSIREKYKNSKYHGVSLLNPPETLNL"}
{"Change": "R5A", "normalised enrichment score": 0.244}
{"Change": "V8A", "normalised enrichment score": 1.23}
{"Change": "E2A", "normalised enrichment score": 4.18}
{"Change": "I11A", "normalised enrichment score": 2.63}
{"Change": "T13A", "normalised enrichment score": 2.42}
{"Change": "S1A", "normalised enrichment score": 2.06}
{"data": "Sample 3", "target": "RNA binding protein fox-1 homolog 2, RRM domain, GST-SBP tag (RBFOX2, Homo sapiens, UniProt O43251-10, residues 100-194)", "technique": "RNA Bind-n-Seq", "molecule type": "RNA", "matrix": "in vitro", "tested at": "365 nM", "setting": "natural RNA segment, single round, ends assumed", "reference": "no-protein control", "direction": "higher = stronger binding", "shared flanks, not repeated": "GGGAGUUCUACAGUCCGACGAUC … UGGAAUUCUCGGGUGCCAA", "Residues (chain)": "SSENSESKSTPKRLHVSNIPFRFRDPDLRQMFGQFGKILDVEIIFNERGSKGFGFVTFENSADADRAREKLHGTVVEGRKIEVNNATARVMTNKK"}
{"Strand": "CUUGGUUCACCUUGCCUGUCGCUAGCAAGCAUCUGGUUCAGCGGAAAUGGGAUGUGAGAAUGAUGAAACCCGACAGAAGUAUCUCAGCCUGCAGUCAGUUAUUAUGUAUA", "RBNS enrichment (R)": 2.11}
{"Strand": "GGCUACCUCCUCUGACAUGCGGUCAGAUAAGUCCCGUCUUGUUUGUGAGUACCACAGAAACGCCUGAGAGUCACUUACCCGGCCACUGCUUGGAAGGUUUCCCUCCGGGG", "RBNS enrichment (R)": 0.349}
{"Strand": "GCAUAGCAGUCAUUUGGAACGAUCUCGUGGGGUGGGACUAAGCCAUAAUGAUGUGUCUGGCUCAAGCAGCAAUGCUGUCCCUGCUCAGAACUGUGGUCUCUGUGGAGAAC", "RBNS enrichment (R)": 0.387}
{"Strand": "GAUUUUGUUAGAGUUCAGAGCACAGCAUCACUCUGAAGGAGUCUGUCUUAUAAAUACAUAAUUACUGUUUAAGAUGUACACUUUGCUAUAGUUACAGAACCAUUGUGAAU", "RBNS enrichment (R)": 0.368}
{"Strand": "GUGGAGCUGCCACAGAGAAGUUUGUAGCCAGGUACUGCAUUCUCUCCCAUCCUGGGGCAGCACUCCCCAGAGCUGUGCCAGCAGGGGGGCUGUGCCAACCUGUUCUUAGA", "RBNS enrichment (R)": 0.291}
{"Strand": "UUUUCUGUUUAGGAAGAAGUGGUACUAGUGUGGUGUGUUUGCUUGGAAAUUCCUUGCCCCACAGUUGUGUUCAUGCUGAAUCCACCUCGGAGCAUGGUGUUUUCAUUCCC", "RBNS enrichment (R)": 1.75}
{"Strand": "ACUCUCCUUUGAUAUUAUGUGGCUUUUAUUUCAGUGCCAUACAUGUUAUUGUUUUCAACCUAGAAACCUUUAUCCCUGCUUAUCUGAAACUUCCCAACUUCCCUGUUCUU", "RBNS enrichment (R)": 0.875}
{"Strand": "UUCUCCCUGCUUCAGUCUCCAGAGAACAUAAAUGGCCAAAAAUGUUAAGUCUGGCUAUAUUUGAAGGUUAUGACAUAAAGCCAGCAGCUUUAAUGGCUUUUAUGAAGUGA", "RBNS enrichment (R)": 0.502}
{"data": "Sample 4", "target": "Interferon regulatory factor 3, full length, phosphomimetic (IRF3, Homo sapiens, UniProt Q14653, residues 1-427, S386D/S396D/S398D/S402D/T404D/S405D)", "technique": "protein-binding microarray", "molecule type": "double-stranded DNA, one strand shown", "matrix": "in vitro", "tested at": "2540 nM top", "setting": "60-bp whole probe", "added": "salmon DNA 0.4 mg/ml", "reference": "random background probes", "direction": "higher = stronger binding", "shared flanks, not repeated": "GCCTAGCAC … GTCTTGATTCGCTTGACGCTGCTG", "Construct (chain)": "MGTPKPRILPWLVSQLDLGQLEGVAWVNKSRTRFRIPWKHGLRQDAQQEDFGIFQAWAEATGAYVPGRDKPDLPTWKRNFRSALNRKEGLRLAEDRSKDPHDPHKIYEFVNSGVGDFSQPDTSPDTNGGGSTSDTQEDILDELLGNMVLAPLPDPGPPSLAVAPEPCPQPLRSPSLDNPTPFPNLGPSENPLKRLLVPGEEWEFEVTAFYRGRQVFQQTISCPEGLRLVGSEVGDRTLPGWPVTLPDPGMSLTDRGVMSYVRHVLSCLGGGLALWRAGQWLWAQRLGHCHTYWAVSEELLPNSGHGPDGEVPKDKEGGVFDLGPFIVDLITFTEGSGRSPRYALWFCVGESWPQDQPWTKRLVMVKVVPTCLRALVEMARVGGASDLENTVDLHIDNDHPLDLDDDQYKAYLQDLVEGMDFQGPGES"}
{"Strand": "GACGGACTGGCTATCGGGACGTGCTAG", "fitted relative affinity": "-0.575 z-score"}
{"Strand": "GACGGTCACGGTCTCGGGACGTGCTAG", "fitted relative affinity": "-0.131 z-score"}
{"Strand": "TTAGGTATCTGTCTCGGTTAGTGCTAG", "fitted relative affinity": "2.1 z-score"}
{"Strand": "GACGAACTGAGTATAGAGACGTGCTAG", "fitted relative affinity": "-0.13 z-score"}
{"Strand": "GACGATACCAGTCTCGAGACGTGCTAG", "fitted relative affinity": "0.82 z-score"}
{"Strand": "CCTAGGGGCGGGGCCAAATGGTGCTAG", "fitted relative affinity": "0.106 z-score"}
{"Strand": "TCAAGTTGGACCTCTCAGACTGTGCTA", "fitted relative affinity": "-0.483 z-score"}
{"Strand": "GACGGTTTCCTTTTCTTGACGTGCTAG", "fitted relative affinity": "10.5 z-score"}
{"Strand": "GACGATTTCAGTCTCGGGACGTGCTAG", "fitted relative affinity": "2.36 z-score"}
{"Strand": "TCAGTTACGGAATTTCCCACTGTGCTA", "fitted relative affinity": "1.58 z-score"}
{"Strand": "TTAGAATTCAGTATCGATTAGTGCTAG", "fitted relative affinity": "1.57 z-score"}
{"Strand": "GACGGTTTCGACTTTTGGGACGTGCTA", "fitted relative affinity": "3.48 z-score"}
{"Strand": "TCATTTATGGTATTTTTACTGTGCTAG", "fitted relative affinity": "1.08 z-score"}
{"Strand": "TACGGTATCCTACTGCTGACGTGCTAG", "fitted relative affinity": "2.41 z-score"}
{"Strand": "TTAGATTTCAGTCTCGGTTAGTGCTAG", "fitted relative affinity": "2.65 z-score"}
{"Strand": "CATGAATCAGGCATAGCATGGTGCTAG", "fitted relative affinity": "-0.27 z-score"}
{"Strand": "GACGGTTTCCTTCTCCTTACGTGCTAG", "fitted relative affinity": "9.91 z-score"}
{"Strand": "GACGATTTCGGTTCCGGGACGTGCTAG", "fitted relative affinity": "6.24 z-score"}
{"Strand": "TTAGGGTTCCTTATCCTTTAGTGCTAG", "fitted relative affinity": "3.71 z-score"}
{"data": "Sample 5", "target": "Sal-like protein 4, full length isoform A (SALL4, Homo sapiens, UniProt Q9UJQ4, residues 1-1053)", "technique": "universal PBM", "molecule type": "double-stranded DNA, one strand shown", "matrix": "in vitro", "tested at": "600 nM", "setting": "8-mer, flanks averaged, mean of replicates", "direction": "higher = stronger binding", "sequence of UniProt Q9UJQ4 (whole entry, looked up)": "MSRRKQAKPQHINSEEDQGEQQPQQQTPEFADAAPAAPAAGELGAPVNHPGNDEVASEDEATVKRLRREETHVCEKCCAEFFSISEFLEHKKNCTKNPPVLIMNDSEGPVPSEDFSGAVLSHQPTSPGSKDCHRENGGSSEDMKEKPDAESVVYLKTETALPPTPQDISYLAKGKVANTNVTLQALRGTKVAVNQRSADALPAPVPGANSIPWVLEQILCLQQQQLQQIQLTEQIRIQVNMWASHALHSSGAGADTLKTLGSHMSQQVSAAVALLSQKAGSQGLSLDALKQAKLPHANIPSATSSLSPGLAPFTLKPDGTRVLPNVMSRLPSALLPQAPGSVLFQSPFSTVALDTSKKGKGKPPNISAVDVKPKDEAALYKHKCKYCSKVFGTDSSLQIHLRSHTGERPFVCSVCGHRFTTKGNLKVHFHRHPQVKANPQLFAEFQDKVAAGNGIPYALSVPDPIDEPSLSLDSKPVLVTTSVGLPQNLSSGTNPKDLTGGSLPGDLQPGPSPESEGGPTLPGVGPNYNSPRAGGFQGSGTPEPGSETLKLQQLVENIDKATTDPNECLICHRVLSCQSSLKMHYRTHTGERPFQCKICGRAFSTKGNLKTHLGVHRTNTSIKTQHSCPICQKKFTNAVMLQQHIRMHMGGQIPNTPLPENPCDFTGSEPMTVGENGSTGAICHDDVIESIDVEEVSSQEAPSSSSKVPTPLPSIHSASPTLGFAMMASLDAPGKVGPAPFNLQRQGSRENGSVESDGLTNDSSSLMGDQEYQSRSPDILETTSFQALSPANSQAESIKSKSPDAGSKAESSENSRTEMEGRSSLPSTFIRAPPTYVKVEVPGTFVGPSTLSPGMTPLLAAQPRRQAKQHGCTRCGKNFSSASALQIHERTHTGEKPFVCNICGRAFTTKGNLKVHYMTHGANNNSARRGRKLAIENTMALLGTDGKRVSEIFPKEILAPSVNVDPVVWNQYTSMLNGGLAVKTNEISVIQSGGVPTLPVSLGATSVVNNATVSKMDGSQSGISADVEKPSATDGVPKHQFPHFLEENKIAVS"}
{"Strand": "GAACGGCA", "E-score": -0.075}
{"Strand": "AGGTTAAC", "E-score": 0.0972}
{"Strand": "AGGAAAAC", "E-score": 0.0113}
{"Strand": "ATAGTCAC", "E-score": 0.13}
{"Strand": "ACCAGCCA", "E-score": -0.219}
{"Strand": "ATAAGTCC", "E-score": 0.217}
{"Strand": "ACTGTAGG", "E-score": -0.0375}
{"Strand": "AACTTCCC", "E-score": -0.0744}
{"Strand": "CCGTGCAC", "E-score": -0.192}
{"Strand": "CACACCGA", "E-score": -0.0976}
{"Strand": "TACACAGA", "E-score": 0.17}
{"Strand": "ACCCAAGC", "E-score": -0.309}
{"Strand": "ACCTTCCG", "E-score": -0.128}
{"Strand": "CGCTGCTA", "E-score": -0.239}
{"Strand": "TGAGAGAA", "E-score": 0.104}
{"Strand": "ATAATAAC", "E-score": 0.457}
{"Strand": "ATTGAGTA", "E-score": 0.311}
{"Strand": "ACGATGTG", "E-score": 0.102}
{"Strand": "CACCCATA", "E-score": -0.139}
{"Strand": "AACAGCTC", "E-score": -0.084}
{"Strand": "GCGCTAAA", "E-score": -0.0736}
{"Strand": "AGCGCGGC", "E-score": -0.315}
{"Strand": "GCTCGTCC", "E-score": -0.168}
{"Strand": "GAAAAGCC", "E-score": -0.188}
{"Strand": "AATAGGAA", "E-score": 0.279}
{"data": "Sample 6", "target": "ABI1, truncated, D143A, DHFR fusion (Arabidopsis thaliana)", "technique": "DHFR PCA, deep sequencing", "matrix": "yeast", "setting": "methotrexate growth selection, single substitutions", "added": "(+)-ABA 4.8 µM", "reference": "wild-type fitted maximum", "direction": "higher = stronger binding", "parent": "PYL1, truncated, DHFR fusion (Arabidopsis thaliana); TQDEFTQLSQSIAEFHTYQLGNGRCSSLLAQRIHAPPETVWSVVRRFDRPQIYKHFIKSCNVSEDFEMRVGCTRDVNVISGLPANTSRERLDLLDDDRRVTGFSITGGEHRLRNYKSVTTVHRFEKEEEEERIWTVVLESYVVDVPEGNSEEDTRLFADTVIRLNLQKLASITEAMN; partner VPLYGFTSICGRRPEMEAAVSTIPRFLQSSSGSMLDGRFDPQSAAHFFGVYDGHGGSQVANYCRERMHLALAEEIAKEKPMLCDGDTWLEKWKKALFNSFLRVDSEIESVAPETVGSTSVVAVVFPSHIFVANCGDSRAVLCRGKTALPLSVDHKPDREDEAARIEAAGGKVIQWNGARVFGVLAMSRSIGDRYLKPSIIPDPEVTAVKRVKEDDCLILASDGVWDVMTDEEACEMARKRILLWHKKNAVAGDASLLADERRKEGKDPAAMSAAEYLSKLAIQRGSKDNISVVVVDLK"}
{"Change": "D95A", "relative binding score [%]": -2.6}
{"Change": "T86C", "relative binding score [%]": 69.3}
{"Change": "Y141M", "relative binding score [%]": -5.28}
{"Change": "W134F", "relative binding score [%]": 79.7}
{"Change": "T17Y", "relative binding score [%]": 22.5}
{"Change": "Y115C", "relative binding score [%]": 13.6}
{"Change": "H55D", "relative binding score [%]": 46.2}
{"Change": "V76A", "relative binding score [%]": 13.3}
{"Change": "T160S", "relative binding score [%]": 24.9}
{"Change": "W41A", "relative binding score [%]": -11.2}
{"Change": "R49V", "relative binding score [%]": 37.6}
{"Change": "T119M", "relative binding score [%]": 58.6}
